Literature values that unrelated publications cite.
Each numbered part shows a few of the values that one paper quotes. ± marks the error that the study gave. ≈ marks a conversion by molar mass, not a printed value.

Set 1
Organism: Escherichia coli
Compound	MIC
CC[C@H](C)[C@H](NC(=O)[C@@H]1CCCN1C(=O)CNC(=O)[C@H](CC(C)C)NC(=O)[C@H](CCCCN)NC(=O)[C@H](CCCNC(=N)N)NC(=O)[C@H](Cc1c[nH]c2ccccc12)NC(=O)[C@H](C)NC(=O)[C@H](CC(N)=O)NC(=O)[C@H](CCCCN)NC(=O)[C@H](CC(C)C)NC(=O)[C@H](CCCCN)NC(=O)[C@H](CC(N)=O)NC(=O)[C@H](CCCNC(=N)N)NC(=O)[C@H](C)NC(=O)[C@H](CCCNC(=N)N)NC(=O)[C@H](CCCNC(=N)N)NC(=O)[C@H](Cc1ccccc1)NC(=O)[C@H](Cc1c[nH]c2ccccc12)NC(=O)CN)C(=O)N[C@H](C(=O)NCC(=O)N1CCC[C@H]1C(=O)N[C@@H](CC(C)C)C(=O)N[C@@H](CC(C)C)C(=O)N[C@H](C(=O)N[C@@H](CCCNC(=N)N)C(=O)O)[C@@H](C)O)C(C)C	4 µM (≈ 12.8 µg/mL)
CC(C)[C@H](NC(=O)[C@H](CCCNC(=N)N)NC(=O)[C@H](Cc1ccccc1)NC(=O)[C@H](CS)NC(=O)[C@H](Cc1c[nH]c2ccccc12)NC(=O)[C@@H](N)CCCCN)C(=O)N[C@@H](CS)C(=O)N[C@@H](Cc1c[nH]c2ccccc12)C(=O)N[C@@H](CCCNC(=N)N)C(=O)N[C@@H](Cc1c[nH]c2ccccc12)C(=O)N[C@@H](Cc1ccccc1)C(=O)N[C@@H](CS)C(=O)N[C@@H](Cc1c[nH]c2ccccc12)C(=O)N[C@@H](CCCNC(=N)N)C(=O)N[C@@H](CCCCN)C(=O)N[C@@H](CS)C(=O)N[C@@H](CCCNC(=N)N)C(=O)O	2 µM (≈ 4.9 µg/mL)
CC[C@H](C)[C@H](NC(=O)CNC(=O)[C@@H](NC(=O)CNC(=O)[C@@H](NC(=O)CNC(=O)[C@@H](NC(=O)[C@@H](NC(=O)[C@H](CCC(N)=O)NC(=O)[C@H](CCC(=O)O)NC(=O)[C@@H](NC(=O)[C@H](CC(C)C)NC(=O)[C@H](CCCNC(=N)N)NC(=O)[C@H](Cc1ccccc1)NC(=O)[C@@H](NC(=O)[C@H](CC(N)=O)NC(=O)[C@H](CCCCN)NC(=O)CNC(=O)[C@H](CCSC)NC(=O)[C@H](CCCCN)NC(=O)CNC(=O)[C@H](CC(C)C)NC(=O)[C@H](CCCCN)NC(=O)[C@H](CCCCN)NC(=O)CNC(=O)[C@H](Cc1ccccc1)NC(=O)[C@H](CCCCN)NC(=O)[C@H](CCCCN)NC(=O)[C@H](CC(C)C)NC(=O)[C@H](Cc1c[nH]c2ccccc12)NC(=O)CN)C(C)C)C(C)C)C(C)C)C(C)C)C(C)C)C(C)C)C(=O)N[C@@H](CC(N)=O)C(=O)N[C@@H](C)C(=O)N[C@@H](CC(C)C)C(=O)N[C@@H](CO)C(=O)O	8 µM (≈ 30.1 µg/mL)
CC(C)[C@H](NC(=O)[C@H](Cc1ccc(O)cc1)NC(=O)[C@H](CS)NC(=O)[C@@H](NC(=O)[C@H](CCCNC(=N)N)NC(=O)[C@H](Cc1ccccc1)NC(=O)[C@H](CS)NC(=O)[C@H](Cc1c[nH]c2ccccc12)NC(=O)[C@@H](N)CCCNC(=N)N)C(C)C)C(=O)NCC(=O)N[C@@H](Cc1ccccc1)C(=O)N[C@@H](CS)C(=O)N[C@@H](Cc1ccc(O)cc1)C(=O)N[C@@H](Cc1c[nH]c2ccccc12)C(=O)N[C@@H](CCCCN)C(=O)N[C@@H](CS)C(=O)N[C@@H](CCCNC(=N)N)C(=O)O	2 µM (≈ 4.55 µg/mL)
CC[C@H](C)[C@H](NC(=O)CNC(=O)[C@H](CCC(N)=O)NC(=O)[C@@H](NC(=O)[C@H](C)NC(=O)[C@H](CCC(N)=O)NC(=O)[C@H](C)NC(=O)[C@@H](NC(=O)[C@H](C)NC(=O)[C@H](CCCNC(=N)N)NC(=O)[C@H](Cc1ccccc1)NC(=O)[C@H](C)NC(=O)[C@H](CC(N)=O)NC(=O)[C@H](CCCCN)NC(=O)CNC(=O)[C@H](C)NC(=O)[C@H](CCCCN)NC(=O)[C@H](CCC(=O)O)NC(=O)[C@@H](NC(=O)[C@H](CCCCN)NC(=O)[C@H](CCCCN)NC(=O)CN)[C@@H](C)CC)C(C)C)C(C)C)C(=O)NCC(=O)N[C@@H](Cc1ccccc1)C(=O)N[C@@H](C)C(=O)N[C@@H](CCCNC(=N)N)C(=O)N[C@@H](C)C(=O)N[C@@H](CC(C)C)C(=O)NCC(=O)N[C@H](C(=O)N[C@@H](C)C(=O)N[C@H](C(=O)N[C@@H](CC(=O)O)C(=O)O)C(C)C)[C@@H](C)CC	2 µM (≈ 6.71 µg/mL)

Other studies, line by line
lasR: Transcriptional activator protein LasR (lasR, Pseudomonas aeruginosa, UniProt P25084)
UniProt P25084, sequence (whole entry, looked up): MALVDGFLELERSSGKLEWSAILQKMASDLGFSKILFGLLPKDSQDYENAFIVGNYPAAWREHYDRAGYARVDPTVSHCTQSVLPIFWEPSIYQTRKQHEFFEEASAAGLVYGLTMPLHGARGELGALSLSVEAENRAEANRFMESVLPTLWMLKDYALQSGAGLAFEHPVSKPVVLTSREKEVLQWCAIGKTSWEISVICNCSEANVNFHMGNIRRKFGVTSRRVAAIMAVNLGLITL
SMILES	tested on	test	test system	conditions	measurement	result
COc1ccc(Nc2nc(Nc3ccc(OCC[18F])cc3)ncc2Br)cc1	–	–	S180 tumour-bearing mice, heart	intravenous, 60 min	tissue uptake	1.97 ± 0.29 %ID/g
CCCCCCCCCCCCn1nnc(CC(=O)O)n1	lasR	rsaL-yfp reporter, inhibitor	PAO-MW1	–	maximal inhibition	80%
CC(=O)OC1C(=O)C2(C)C(O)CC3OCC3(OC(C)=O)C2C(OC(=O)c2cccc(OC(F)F)c2)C2(O)CC(OC(=O)C(O)C(C=C(C)C)NC(=O)OC(C)(C)C)C(C)=C1C2(C)C (stereo not shown)	HCT-116	cytotoxicity	–	–	IC50	1.73 nM
CCCCCCCCCNC(=O)CC(=O)c1ccccc1	lasR	rsaL-yfp reporter, inhibitor	PAO-MW1	–	maximal inhibition	75%
COC(=O)OC1C(=O)C2(C)C(O)CC3OCC3(OC(C)=O)C2C(OC(=O)c2cccc(OC(F)(F)F)c2)C2(O)CC(OC(=O)C(O)C(C=C(C)C)NC(=O)OC(C)(C)C)C(C)=C1C2(C)C (stereo not shown)	CFPAC-1	cytotoxicity	–	–	IC50	0.51 nM

Excerpt of the above (set 1):
Compound	MIC
CC[C@H](C)[C@H](NC(=O)CNC(=O)[C@@H](NC(=O)CNC(=O)[C@@H](NC(=O)CNC(=O)[C@@H](NC(=O)[C@@H](NC(=O)[C@H](CCC(N)=O)NC(=O)[C@H](CCC(=O)O)NC(=O)[C@@H](NC(=O)[C@H](CC(C)C)NC(=O)[C@H](CCCNC(=N)N)NC(=O)[C@H](Cc1ccccc1)NC(=O)[C@@H](NC(=O)[C@H](CC(N)=O)NC(=O)[C@H](CCCCN)NC(=O)CNC(=O)[C@H](CCSC)NC(=O)[C@H](CCCCN)NC(=O)CNC(=O)[C@H](CC(C)C)NC(=O)[C@H](CCCCN)NC(=O)[C@H](CCCCN)NC(=O)CNC(=O)[C@H](Cc1ccccc1)NC(=O)[C@H](CCCCN)NC(=O)[C@H](CCCCN)NC(=O)[C@H](CC(C)C)NC(=O)[C@H](Cc1c[nH]c2ccccc12)NC(=O)CN)C(C)C)C(C)C)C(C)C)C(C)C)C(C)C)C(C)C)C(=O)N[C@@H](CC(N)=O)C(=O)N[C@@H](C)C(=O)N[C@@H](CC(C)C)C(=O)N[C@@H](CO)C(=O)O	8 µM (≈ 30.1 µg/mL)
